Published values pooled from the literature.
Lines come from different studies, so protocols differ. ± marks the error that the study gave.

Cc1ccc2c(Cl)cc(Cl)c([O-])c2n1.Cc1ccc2c(Cl)cc(Cl)c([O-])c2n1.[Co+2].c1ccc(-c2ccccn2)nc1
IC50 (BEL-7404; cell growth or viability, MTT; 48 h): 6000 nM

CN1CCC(N[C@@H]2CCc3[nH]c4c(C(N)=O)ccc(-c5ccccc5Cl)c4c3C2)CC1
IC50 (K562 parental; cell proliferation): 24.1 nM

Cn1ncc(-c2ccc3c(=O)[nH]nc(CN)c3c2)c1-c1c(F)c(Cl)cc(OC2CC2)c1C#N
IC50 (NCI-H1650; cell viability, inhibitor, CellTiter-Glo; 120 h, baseline-subtracted): 100 nM

CCOc1cncc(-c2ccc(NC(=O)C3(c4ccnc(NS(=O)(=O)C5CC5)n4)CCOCC3)nc2)n1
IC50 (NCI-H1299; cell growth or viability, ATP luminescence; 72 h): 131 nM

Cc1ccc2c(Cl)cc(Cl)c([O-])c2n1.Cc1ccc2c(Cl)cc(Cl)c([O-])c2n1.[Co+2].c1ccc(-c2ccnc3c2ccc2c(-c4ccccc4)ccnc23)cc1
IC50 (BEL-7404; cell growth or viability, MTT; 48 h): 4920 nM

CCN(C(=O)c1cc(F)ccc1Oc1nncnc1N1CCC2(C1)CN([C@H](CCCN(C)CCOC)C(C)C)C2)C(C)C
IC50 (OCI-AML-3 (NPM1c); inhibitor, QuantiGene multiplex, measured: FLT3 mRNA): 283 ± 209 nM

COc1ccccc1CNC[C@](O)(COCc1ccccc1)[C@@H]1CC[C@@H](C)C[C@H]1OCc1ccccc1
IC50 (A2780; cell growth or viability, MTT; 72 h): 2190 nM

COc1cc(-c2cc(C(C)=O)n3ccccc23)cc(OC)c1Cn1ccnc1
IC50 (MOLM16; cell growth or viability, ATP luminescence): 450 nM

CC(C)=CC1OC(C)(C)C2C=C3C(=O)C(Cl)=CC(O)C3C3C(O)C4OC4C(=O)C132 (stereo not drawn)
IC50 (TE-12; cell viability, MTS): 5440 ± 290 nM

CNS(=O)(=O)Nc1nccc(Cc2c(C)c3ccc(Oc4ncccc4F)cc3oc2=O)c1F
IC50 (MINO; cell viability, CellTiter-Glo; 7 days): 12.7 nM

CCCC(CCC)C(=O)[O][Pt]([NH2])([NH2])([Cl])([Cl])[O]C(C)=O
IC50 (LoVo; cell growth or viability, MTT; 72 h): 5420 nM

C=CC(=O)Nc1cc(Nc2nccc(-c3cn(C)c4ccccc34)n2)c(OC)cc1N(C)CCN(C)C
IC50 (Ba/F3 EGFR 19Del/T790M/C797S BBT-176-resistant BR2; cell growth; 72 h): > 1000 nM

CC(C)c1ccc(N(C)c2ccc3c(c2)OCC[C@H]3CNc2cnccc2C(=O)O)cc1
IC50 (NCI-H1694; cell growth or viability, ATP luminescence; 7 days): 1.75 nM

C=CC(=O)N1CCCC(n2c(=O)c3ncccc3n(Cc3ccc(Oc4ccccc4)cc3)c2=O)C1 (stereo not drawn)
IC50 (FEPD; cell proliferation, MTT; 72 h): 3000 nM

NC(=O)c1ccc(-c2ccccc2Cl)c2c3c([nH]c12)CC[C@@H](N)C3
IC50 (MINO; cell growth or viability): 21.2 nM
